Published values from different studies.
Lines come from different studies, so protocols differ.
UniProt P20309, sequence (whole entry, looked up): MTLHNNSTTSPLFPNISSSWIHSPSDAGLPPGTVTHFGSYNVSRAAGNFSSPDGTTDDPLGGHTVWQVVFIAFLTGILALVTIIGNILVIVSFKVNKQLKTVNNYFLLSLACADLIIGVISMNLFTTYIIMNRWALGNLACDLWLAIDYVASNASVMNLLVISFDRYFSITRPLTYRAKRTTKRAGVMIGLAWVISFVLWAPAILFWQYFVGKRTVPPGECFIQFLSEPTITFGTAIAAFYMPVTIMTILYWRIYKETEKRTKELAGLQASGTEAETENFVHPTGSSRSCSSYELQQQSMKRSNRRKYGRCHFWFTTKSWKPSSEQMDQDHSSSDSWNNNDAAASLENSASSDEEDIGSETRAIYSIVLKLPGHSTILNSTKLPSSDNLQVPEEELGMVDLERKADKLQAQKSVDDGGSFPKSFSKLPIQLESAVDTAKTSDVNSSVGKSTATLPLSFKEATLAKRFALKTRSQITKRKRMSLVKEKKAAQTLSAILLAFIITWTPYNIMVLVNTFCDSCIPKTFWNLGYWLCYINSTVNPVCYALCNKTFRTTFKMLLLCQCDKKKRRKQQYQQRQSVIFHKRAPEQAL
UniProt Q13263, sequence (whole entry, unmodified, looked up): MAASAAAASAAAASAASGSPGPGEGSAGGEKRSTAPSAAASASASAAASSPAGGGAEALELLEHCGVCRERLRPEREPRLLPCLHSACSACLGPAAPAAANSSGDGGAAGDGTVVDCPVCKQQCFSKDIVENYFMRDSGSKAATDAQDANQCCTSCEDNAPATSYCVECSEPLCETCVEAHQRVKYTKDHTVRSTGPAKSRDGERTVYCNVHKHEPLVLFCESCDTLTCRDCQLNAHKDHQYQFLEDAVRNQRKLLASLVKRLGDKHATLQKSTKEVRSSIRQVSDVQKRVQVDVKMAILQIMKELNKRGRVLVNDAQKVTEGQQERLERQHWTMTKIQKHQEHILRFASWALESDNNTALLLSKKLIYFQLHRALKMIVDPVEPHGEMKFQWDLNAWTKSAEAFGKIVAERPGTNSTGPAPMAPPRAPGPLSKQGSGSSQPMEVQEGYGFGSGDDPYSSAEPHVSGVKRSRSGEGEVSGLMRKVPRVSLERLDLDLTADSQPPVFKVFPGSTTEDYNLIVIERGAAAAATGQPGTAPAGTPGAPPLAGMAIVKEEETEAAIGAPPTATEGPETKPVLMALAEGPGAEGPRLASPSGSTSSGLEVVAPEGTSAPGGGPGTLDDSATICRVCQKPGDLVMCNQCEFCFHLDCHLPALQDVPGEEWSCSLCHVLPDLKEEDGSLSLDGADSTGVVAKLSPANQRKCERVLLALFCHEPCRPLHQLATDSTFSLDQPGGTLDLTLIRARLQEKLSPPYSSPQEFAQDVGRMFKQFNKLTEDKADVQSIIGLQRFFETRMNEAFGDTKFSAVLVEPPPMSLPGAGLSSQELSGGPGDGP
UniProt Q9NSY1, sequence (whole entry, looked up): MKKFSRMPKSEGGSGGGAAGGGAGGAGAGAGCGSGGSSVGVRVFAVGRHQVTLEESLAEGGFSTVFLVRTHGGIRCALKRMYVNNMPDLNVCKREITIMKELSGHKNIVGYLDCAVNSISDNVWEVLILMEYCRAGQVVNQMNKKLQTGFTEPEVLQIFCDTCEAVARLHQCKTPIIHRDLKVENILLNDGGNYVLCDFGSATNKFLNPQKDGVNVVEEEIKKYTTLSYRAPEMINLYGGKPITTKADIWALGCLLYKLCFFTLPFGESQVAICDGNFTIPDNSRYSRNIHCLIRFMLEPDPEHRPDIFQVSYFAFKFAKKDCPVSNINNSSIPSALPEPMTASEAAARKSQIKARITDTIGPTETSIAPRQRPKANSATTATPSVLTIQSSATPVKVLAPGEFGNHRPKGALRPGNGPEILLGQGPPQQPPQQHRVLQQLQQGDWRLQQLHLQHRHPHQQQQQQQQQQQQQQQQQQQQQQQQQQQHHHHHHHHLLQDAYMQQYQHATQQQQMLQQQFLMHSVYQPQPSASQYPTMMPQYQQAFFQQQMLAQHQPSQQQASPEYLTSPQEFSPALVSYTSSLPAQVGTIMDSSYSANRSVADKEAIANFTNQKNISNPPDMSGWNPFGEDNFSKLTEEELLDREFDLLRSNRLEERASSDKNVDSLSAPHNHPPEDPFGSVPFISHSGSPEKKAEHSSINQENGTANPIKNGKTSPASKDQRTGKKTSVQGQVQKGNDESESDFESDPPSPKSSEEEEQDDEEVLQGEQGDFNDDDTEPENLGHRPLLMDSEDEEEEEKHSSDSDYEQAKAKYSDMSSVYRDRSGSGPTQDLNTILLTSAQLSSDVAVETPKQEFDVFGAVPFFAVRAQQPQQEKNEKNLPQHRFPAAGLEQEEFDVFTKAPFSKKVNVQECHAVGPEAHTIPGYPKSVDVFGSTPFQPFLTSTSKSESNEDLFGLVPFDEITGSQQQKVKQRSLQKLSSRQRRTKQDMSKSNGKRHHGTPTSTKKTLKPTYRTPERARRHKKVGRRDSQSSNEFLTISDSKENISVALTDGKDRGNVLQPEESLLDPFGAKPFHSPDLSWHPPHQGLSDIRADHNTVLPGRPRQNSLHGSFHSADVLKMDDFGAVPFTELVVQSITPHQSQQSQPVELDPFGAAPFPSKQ
UniProt O60741, sequence (whole entry, looked up): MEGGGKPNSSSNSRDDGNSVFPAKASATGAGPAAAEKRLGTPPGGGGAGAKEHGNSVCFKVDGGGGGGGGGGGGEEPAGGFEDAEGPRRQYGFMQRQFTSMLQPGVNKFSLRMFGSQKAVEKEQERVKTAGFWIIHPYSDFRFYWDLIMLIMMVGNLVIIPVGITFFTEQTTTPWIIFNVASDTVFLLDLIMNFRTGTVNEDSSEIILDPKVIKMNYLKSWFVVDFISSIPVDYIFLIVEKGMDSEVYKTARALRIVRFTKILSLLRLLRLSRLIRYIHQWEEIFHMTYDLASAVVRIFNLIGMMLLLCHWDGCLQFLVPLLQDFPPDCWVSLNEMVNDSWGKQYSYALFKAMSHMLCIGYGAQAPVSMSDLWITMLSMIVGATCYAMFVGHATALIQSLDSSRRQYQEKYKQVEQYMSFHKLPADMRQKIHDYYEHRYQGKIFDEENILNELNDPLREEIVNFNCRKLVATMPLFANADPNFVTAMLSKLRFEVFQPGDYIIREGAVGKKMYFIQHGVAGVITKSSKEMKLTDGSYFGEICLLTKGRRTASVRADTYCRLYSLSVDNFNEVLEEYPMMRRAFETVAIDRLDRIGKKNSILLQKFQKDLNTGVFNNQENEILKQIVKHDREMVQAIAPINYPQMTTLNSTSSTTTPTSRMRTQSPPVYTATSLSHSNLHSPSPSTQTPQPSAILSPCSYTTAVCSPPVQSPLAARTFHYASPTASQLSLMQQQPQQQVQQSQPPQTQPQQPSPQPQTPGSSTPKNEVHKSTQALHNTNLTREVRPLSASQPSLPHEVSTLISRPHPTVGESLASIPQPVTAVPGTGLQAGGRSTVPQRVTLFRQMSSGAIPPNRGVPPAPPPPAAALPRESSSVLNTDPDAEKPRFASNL
UniProt P07550, sequence (whole entry, looked up): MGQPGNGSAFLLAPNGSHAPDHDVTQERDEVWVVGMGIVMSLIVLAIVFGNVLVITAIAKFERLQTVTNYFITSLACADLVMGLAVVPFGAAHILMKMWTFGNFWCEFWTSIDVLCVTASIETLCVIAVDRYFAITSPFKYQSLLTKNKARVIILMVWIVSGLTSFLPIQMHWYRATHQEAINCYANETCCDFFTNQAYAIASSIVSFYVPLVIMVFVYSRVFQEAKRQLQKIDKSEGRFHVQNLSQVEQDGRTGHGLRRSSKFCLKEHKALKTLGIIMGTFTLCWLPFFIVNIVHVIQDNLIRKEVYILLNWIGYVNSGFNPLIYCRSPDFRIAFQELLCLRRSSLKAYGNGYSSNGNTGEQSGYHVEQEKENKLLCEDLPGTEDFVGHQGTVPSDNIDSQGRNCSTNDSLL
UniProt Q00536, sequence (whole entry, looked up): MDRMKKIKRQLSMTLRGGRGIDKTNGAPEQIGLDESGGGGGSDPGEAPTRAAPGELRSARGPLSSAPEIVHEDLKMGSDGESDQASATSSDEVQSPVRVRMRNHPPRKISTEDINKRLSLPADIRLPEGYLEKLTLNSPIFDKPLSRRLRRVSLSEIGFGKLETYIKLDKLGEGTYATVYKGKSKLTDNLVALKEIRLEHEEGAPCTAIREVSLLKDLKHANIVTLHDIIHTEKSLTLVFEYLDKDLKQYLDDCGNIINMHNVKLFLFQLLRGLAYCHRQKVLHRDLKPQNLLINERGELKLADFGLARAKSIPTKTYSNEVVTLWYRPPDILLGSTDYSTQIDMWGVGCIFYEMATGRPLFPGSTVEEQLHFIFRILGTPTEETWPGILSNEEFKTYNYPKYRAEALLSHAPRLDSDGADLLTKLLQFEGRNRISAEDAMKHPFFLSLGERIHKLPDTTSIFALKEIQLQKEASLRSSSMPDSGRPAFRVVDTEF

| Compound | target | read-out | action | technique | tested at | measurement | result |
| --- | --- | --- | --- | --- | --- | --- | --- |
| Cc1nn(C)cc1-c1nc2c(N3CCN(Cc4ccc(Cl)cc4)CC3)c(Cl)cnc2[nH]1 | Mitogen-activated protein kinase kinase kinase 19 (MAP3K19, Homo sapiens, UniProt Q56UN5) | binding |  | competition with immobilised ligand | 1 µM | remaining binding | 67% |
| Nc1ncc(-c2nc(N3CCOCC3)nc(N3CCOCC3)n2)c(C(F)F)n1 | BMP-2-inducible protein kinase (BMP2K, Homo sapiens, UniProt Q9NSY1) | binding |  | competition with immobilised ligand | 10 µM | remaining binding | 91% |
| CC(C)CC(=O)OC[C@H]1O[C@@](C#N)(c2ccc3c(N)ncnn23)[C@H](O)[C@@H]1O | Muscarinic acetylcholine receptor M3 (CHRM3, Homo sapiens, UniProt P20309) | cell-free assay |  |  | 20 µM | inhibition | 10% |
| c1cncc([C@@H]2CCCN2)c1 | Beta-2 adrenergic receptor (ADRB2, Homo sapiens, UniProt P07550) | ligand displacement |  |  | 50 µM | inhibition | 23.6% |
| CCN(CC)CCCC[C@H](NC(=O)[C@H](CC(C)C)NC(=O)[C@H](C)NC(=O)[C@H](Cc1ccccc1)NC(=O)c1ccc(C(C)(C)C)cc1)C(=O)N[C@@H](CO)C(=O)OC | Transcription intermediary factor 1-beta (TRIM28, Homo sapiens, UniProt Q13263) | thermal stability |  | DSF | 25 µM | ΔTm | 0.47 °C |
| Nc1ccncc1 | Potassium/sodium hyperpolarization-activated cyclic nucleotide-gated channel 1 (Homo sapiens, UniProt O60741) | ion current | inhibitor |  | 30 µM | inhibition | -415% |
| COc1ncccc1-c1cnn2ccc(N3CCN(C(=O)OC(C)C)CC3)nc12 | Receptor tyrosine-protein kinase erbB-3 (ERBB3, Homo sapiens, UniProt P21860) | binding |  | competition with immobilised ligand | 1 µM | remaining binding | 100% |
| [2H]c1c([2H])c([C@]2([2H])CCCN2C(=O)C(C)(C)Oc2ccc3cn[nH]c3c2)c([2H])c([2H])c1C([2H])([2H])[2H] | Cyclin-dependent kinase 16 (CDK16, Homo sapiens, UniProt Q00536) | binding |  | competition with immobilised ligand | 1 µM | remaining binding | 87% |

For quick reference, copied from above:
| Compound | target | read-out | action | technique | tested at | measurement | result |
| --- | --- | --- | --- | --- | --- | --- | --- |
| CC(C)CC(=O)OC[C@H]1O[C@@](C#N)(c2ccc3c(N)ncnn23)[C@H](O)[C@@H]1O | Muscarinic acetylcholine receptor M3 (CHRM3, Homo sapiens, UniProt P20309) | cell-free assay |  |  | 20 µM | inhibition | 10% |
